Assay results from different studies.
Cell line: MCF7

SMILES | test | conditions | IC50 [µM]
Nc1ncc(-c2nc(N3CCOCC3)nc(N3CCN(C(=O)CCC(=O)NCCCCCCCCCNc4cccc5c4C(=O)N(C4CCC(=O)NC4=O)C5=O)CC3)n2)c(C(F)F)n1 (stereo not drawn) | inhibitor, In-Cell Western, refers to: Akt pSer473 | 2 h | 0.0375
CCc1ccc(/N=C2\C(=O)N(Cc3ccc([N+](=O)[O-])cc3)c3ccccc32)cc1 | cell growth or viability, MTT | 48 h | 8.58
CCN(CC)c1ccc(C=O)c(OS(=O)(=O)Oc2ccc3c(c2)CC[C@@H]2[C@@H]3CC[C@]3(C)C(=O)CC[C@@H]23)c1 | – | 72 h | 14.9
COc1ccccc1CNC[C@](O)(COCc1ccccc1)[C@@H]1CC[C@@H](C)C[C@H]1OCc1ccccc1 | cell growth or viability, MTT | 72 h | 1.78
NC(=O)c1ccc(-c2ccccc2Cl)c2c3c([nH]c12)CCC(N)C3 (stereo not drawn) | cell growth or viability | 96 h | 0.0261
Cc1ccc2c(Cl)cc(Cl)c([O-])c2n1.Cc1ccc2c(Cl)cc(Cl)c([O-])c2n1.Cc1ccnc(-c2cc(C)ccn2)c1.[Co+2] | cell growth or viability, MTT | 48 h | 10.3
COc1ccc(C2CC(=O)c3c(cc(O)c(CC=C(C)C)c3O)O2)cc1 (stereo not drawn) | cytotoxicity, MTT | 48 h, as reported | > 100
Cc1ccnc(-c2cc(C(=O)O)ccn2)c1.F[P-](F)(F)(F)(F)F.F[P-](F)(F)(F)(F)F.[Ru+2].c1ccc(-c2ccccn2)nc1.c1ccc(-c2ccccn2)nc1 | cell viability | 48 h, light irradiation 2.5 min | > 100
CN1CCC(N[C@@H]2CCc3[nH]c4c(C(N)=O)ccc(-c5ccccc5Cl)c4c3C2)CC1 | cell growth or viability | – | 0.0183
C=CCc1c(O)cc2c(c1O)C(=O)CC(c1ccc(O)cc1)O2 (stereo not drawn) | cytotoxicity, MTT | 48 h, sigmoidal fit | 114
COc1ccccc1/C=C1\C(=O)N(C)c2ccc(Nc3nc(C)nc4ccccc34)cc21 | cell growth or viability, MTT | – | 9.73
O=C(c1ccccc1)N1CCN(CC(OCc2ccc3ccccc3c2)c2ccc(Cl)cc2Cl)CC1 (stereo not drawn) | cell growth or viability, MTT | 24 h | > 50
Cc1c(COc2cc(OCc3cccc(C#N)c3)c(CN3CCCC[C@@H]3C(=O)O)cc2Cl)cccc1-c1cccc(OCCCCCCC(=O)NO)c1 | cell growth or viability, CCK-8 | 48 h | 19.3
CCC(=CCc1c(O)cc2c(c1O)C(=O)CC(c1ccccc1O)O2)CC (stereo not drawn) | cell growth or viability, MTT | 48 h | 70.5
Nc1ncc(-c2nc(N3CCOCC3)nc(N3CCN(C(=O)CCC(=O)N4CCN(CCCCCCNc5cccc6c5C(=O)N(C5CCC(=O)NC5=O)C6=O)CC4)CC3)n2)c(C(F)F)n1 (stereo not drawn) | inhibitor, In-Cell Western, refers to: Akt pSer473 | 2 h | 0.0118
Cn1ncc(-c2ccc3c(=O)[nH]nc(CN)c3c2)c1-c1c(F)c(Cl)cc(OC2CC2)c1C#N | cell viability, inhibitor, CellTiter-Glo | 120 h, baseline-subtracted | 0.005
Cc1ccc(-c2ccc(C)cn2)nc1 | cell growth or viability, MTT | 48 h | > 50
Clc1ccc(C(Cn2cnc3ccccc32)OCc2ccc3ccccc3c2)c(Cl)c1 (stereo not drawn) | cell growth or viability, MTT | 24 h | 37.1
O=C([O-])CC(=O)[O-].[W+4].c1cc[cH-]c1.c1cc[cH-]c1 | cell growth or viability, MTT | – | 410
O=C1CS/C(=N\N=C\c2cccc3cc4ccccc4nc23)N1c1ccc([N+](=O)[O-])cc1 | cell growth or viability, MTT | 48 h | > 50

SMILES | test | conditions | IC50 [µM]
Nc1ncc(-c2nc(N3CCOCC3)nc(N3CCN(C(=O)CCC(=O)N4CCC(CC5CCN(c6cc7c(cc6F)C(=O)N(C6CCC(=O)NC6=O)C7=O)CC5)CC4)CC3)n2)c(C(F)F)n1 (stereo not drawn) | inhibitor, In-Cell Western, refers to: Akt pSer473 | 2 h | 0.0089
CCOc1cncc(-c2ccc(NC(=O)C3(c4ccnc(NS(=O)(=O)C5CC5)n4)CCOCC3)nc2)n1 | cell growth or viability, ATP luminescence | 72 h | 0.035
CC(C)CN(CC(=O)N1CCN(CC(OCc2ccc3ccccc3c2)c2ccc(Cl)cc2Cl)CC1)CC(C)C (stereo not drawn) | cell growth or viability, MTT | 24 h | 4.69
C[C@@H]1CC[C@@H]([C@](O)(COCc2ccccc2)Cn2cnc3ccccc32)[C@H](OCc2ccccc2)C1 | cell growth or viability, MTT | 72 h | 5.68
COc1ccnc(-c2cc(OC)ccn2)c1.[Co+2].[O-]c1c(I)cc(I)c2cccnc12.[O-]c1c(I)cc(I)c2cccnc12 | cell growth or viability, MTT | 48 h | 23.5
O=C1/C(=N\c2ccc(Cl)cc2Br)c2ccccc2N1C(=O)c1ccccc1Br | cell growth or viability, MTT | 48 h | 23.1
CN1CCN(CC(=O)N2CCN(CC(OCc3ccc4ccccc4c3)c3ccc(Cl)cc3Cl)CC2)CC1 (stereo not drawn) | cell growth or viability, MTT | 24 h | 7.13
CCOC(=O)/C=C1\S/C(=N\N=C\c2cccc3cc4ccccc4nc23)N(c2ccc(OC)cc2)C1=O | cell growth or viability, MTT | 48 h | > 50
Cc1ccc(-c2ccc(C)cn2)nc1.[Co+2].[O-]c1c(I)cc(Cl)c2cccnc12.[O-]c1c(I)cc(Cl)c2cccnc12 | cell growth or viability, MTT | 48 h | 15.1
COc1ccccc1/C=C1\C(=O)Nc2ccc(Nc3nc(C)nc4ccccc34)cc21 | cell growth or viability, MTT | – | 6.63
CC(C)=CC1OC(C)(C)C2C=C3C(=O)C(Cl)=CC(O)C3C3C(O)C4OC4C(=O)C132 (stereo not drawn) | cell growth or viability, MTS | – | > 20
CC(=O)[O][Pd][c]1cc(Cl)ccc1N1N=C(C)C(C)(C)C1=O.CC(=O)[O][Pd][c]1cc(Cl)ccc1N1N=C(C)C(C)(C)C1=O | cell growth or viability, MTT | – | > 100
CCCCN(CCCC)CC(=O)N1CCN(CC(OCc2ccc3ccccc3c2)c2ccc(Cl)cc2Cl)CC1 (stereo not drawn) | cell growth or viability, MTT | 24 h | > 50
O=C1C(Nc2ccc(Cl)cc2)c2ccccc2N1Cc1ccccc1 (stereo not drawn) | cell growth or viability, MTT | 48 h | 39.8
CNC(NN=Cc1ccc([N+](=O)[O-])o1)=[S+][Au-][Cl] | cell growth or viability, resazurin | – | 28.1
Cc1c(COc2cc(OCc3cccc(C#N)c3)c(CNC(C)(CO)CO)cc2Cl)cccc1-c1cccc(OCCCCCCC(=O)NO)c1 | cell growth or viability, CCK-8 | 48 h | > 20
c1ccc(-c2ccnc3c2ccc2c(-c4ccccc4)ccnc23)cc1 | cell growth or viability, MTT | 48 h | > 50
O=C(c1ccc([N+](=O)[O-])cc1)N1CCN(CC(OCc2ccc3ccccc3c2)c2ccc(Cl)cc2Cl)CC1 (stereo not drawn) | cell growth or viability, MTT | 24 h | 42.8
CCCN1C(=O)/C(=C/C(=O)OCC)S/C1=N\N=C\c1cccc2cc3ccccc3nc12 | cell growth or viability, MTT | 48 h | > 50
